Assay results collected from several papers.

SMILES | species | sample | route | dose | setting | Cmax
C#C[C@]1(CO)O[C@@H](n2cnc3c(N)nc(F)nc32)C[C@@H]1O | human | plasma | oral | 100 mg | single dose, fasted | 3200 nM
Cc1ccsc1C(=O)Nc1cc(CN2CCN(C(=O)CO)CC2)ccc1/C=C/c1n[nH]c2ccccc12 | human | plasma | oral | 50 mg/day | patients | 3030 ng/mL
CNc1nc(Nc2ccc(-n3cnc(C)n3)c(OC)c2)nc2c1CC[C@H]2c1ccc(F)cc1 | human | plasma | oral | 300 mg | fed | 721 ng/mL
Nc1ncc(-c2cnn(CCO)c2)c2scc(-c3ccc(NC(=O)Nc4cccc(F)c4)cc3)c12 | human | plasma | oral | 240 mg | patients | 294 ng/mL
C[C@H](N)C(=O)N1C[C@H](CCCB(O)O)[C@](N)(C(=O)O)C1 | human | plasma | oral | 75 mg twice daily | multiple doses, patients | 1940 ng/mL
C=CC(=O)Nc1cc(Nc2ncc(C(=O)OC(C)C)c(-c3cn(C)c4ccccc34)n2)c(OC)cc1N(C)CCN(C)C | human | plasma | oral | 160 mg | single dose, fasted, healthy volunteers | 52.2 ng/mL
Nc1cc(F)ccc1NC(=O)c1ccc(CNC(=O)/C=C/c2cccnc2)cc1 | human | plasma | oral | 30 mg | patients | 199 ng/mL
O=C(CCCCCCC(=O)Nc1ccccc1)NO | human | serum | oral | 400 mg | patients | 2350 nM
CC#CC(=O)N[C@H]1CCCN(c2c(F)cc(C(N)=O)c3[nH]c(C)c(C)c23)C1 | human | plasma | oral | 0.3 mg | single dose | 1.7 ng/mL
CS(=O)(=O)n1cc2c(n1)CN([C@H]1CO[C@H](c3cc(F)ccc3F)[C@@H](N)C1)C2 | male human | plasma | oral | 50 mg | single dose, fasted | 1710 nM
CNC(=O)c1ccc(-c2cnc3ncc(Cc4ccc5ncccc5c4)n3n2)cc1F | human | plasma | oral | 250 mg twice daily | multiple doses, steady state, patients | 1580 ng/mL
Cc1c(Cl)c(C)[n+]([O-])c(Cl)c1-c1noc(-c2cc(O)c(O)c([N+](=O)[O-])c2)n1 | male human | plasma | oral | 25 mg | single dose, fasted, healthy volunteers, tablet | 970 ng/mL
CC#CC(=O)N1CCC[C@H]1c1nc(-c2ccc(C(=O)Nc3ccccn3)cc2)c2c(N)nccn12 | human | plasma | oral | 100 mg | single dose, fasted | 602 ng/mL
CCCOc1ccc([C@H]2CNC(=O)N2c2ccc3[nH]cnc3c2)cc1 | human | plasma | oral | 500 mg | multiple doses, twice daily, fasted | 4460 ng/mL
CCCCCN1C[C@H](O)[C@@H](O)[C@H](O)[C@@H]1CO | male human | plasma | oral | 300 mg | single dose, fasted, healthy volunteers | 2820 ng/mL
C=C(C)[C@@H]1CC[C@]2(NCCN3CCS(=O)(=O)CC3)CC[C@]3(C)[C@H](CC[C@@H]4[C@@]5(C)CC=C(C6=CC[C@@](CF)(C(=O)O)CC6)C(C)(C)[C@@H]5CC[C@]43C)[C@@H]12 | human | plasma | oral | 40 mg | multiple doses, once daily, patients | 470 ng/mL
CNC(=O)c1ccccc1Sc1ccc2c(/C=C/c3ccccn3)n[nH]c2c1 | human | plasma | oral | 10 mg | single dose, fed | 34.9 ng/mL
C[C@@H]1CCC[C@H](n2cnc(-c3cc(Cl)ccc3-n3cc(Cl)nn3)cc2=O)c2cc(ccn2)-c2c(cnn2C(F)F)NC1=O | human | plasma | oral | 200 mg | single dose, fasted, healthy volunteers | 1070 ng/mL
CN1CC[C@@H](NC(=O)Nc2ccc(C#N)cc2)C[C@@H]1c1nc2ccccc2[nH]1 | human | plasma | oral | 25 mg | single dose, patients | 281 ng/mL
O=C(c1nc2n(n1)[C@H](c1ccccc1)C[C@@H]2F)C1CC1 | human | plasma | oral | 25 mg | single dose, fasted, healthy volunteers | 479 ng/mL
Nc1ccc(-c2nc([C@H]3CCc4cc(-c5cc(Cl)ccc5-n5cnnn5)cc(=O)n43)c(F)[nH]2)c(F)n1 | human | plasma | oral | 80 mg | single dose, fed | 537 ng/mL
CNCc1ccc(-c2[nH]c3cc(F)cc4c3c2CCNC4=O)cc1 | human | plasma | oral | 600 mg | multiple doses, twice daily, steady state, patients | 2420 ng/mL
CN(C(=O)n1cnc(-c2ccc[n+]([O-])c2)c1)C1CCCCC1 | human | plasma | oral | 40 mg | single dose, healthy volunteers | 790 ng/mL
O=C(CCCCCCC(=O)Nc1ccccc1)NO | human | serum | oral | 200 mg | single dose, patients | 167 ng/mL
COc1cccc(-c2ccc(NC(=O)C3=C(C(=O)O)CCC3)c(F)c2)c1 | male human | plasma | oral | 30 mg | single dose, fasted, healthy volunteers | 4940 ng/mL
COc1cccc(OCCCN)c1-c1cc(Nc2cnc(C#N)cn2)n[nH]1 | human | plasma | intravenous | 105 mg/m² | patients, infusion | 820 ng/mL

Repeated from above:
SMILES | species | sample | route | dose | setting | Cmax
C#C[C@]1(CO)O[C@@H](n2cnc3c(N)nc(F)nc32)C[C@@H]1O | human | plasma | oral | 100 mg | single dose, fasted | 3200 nM
Cc1ccsc1C(=O)Nc1cc(CN2CCN(C(=O)CO)CC2)ccc1/C=C/c1n[nH]c2ccccc12 | human | plasma | oral | 50 mg/day | patients | 3030 ng/mL
CNc1nc(Nc2ccc(-n3cnc(C)n3)c(OC)c2)nc2c1CC[C@H]2c1ccc(F)cc1 | human | plasma | oral | 300 mg | fed | 721 ng/mL
